Measured values from different studies.
Protocols differ between the studies behind these lines.
UniProt Q8TF76, sequence (whole entry, looked up): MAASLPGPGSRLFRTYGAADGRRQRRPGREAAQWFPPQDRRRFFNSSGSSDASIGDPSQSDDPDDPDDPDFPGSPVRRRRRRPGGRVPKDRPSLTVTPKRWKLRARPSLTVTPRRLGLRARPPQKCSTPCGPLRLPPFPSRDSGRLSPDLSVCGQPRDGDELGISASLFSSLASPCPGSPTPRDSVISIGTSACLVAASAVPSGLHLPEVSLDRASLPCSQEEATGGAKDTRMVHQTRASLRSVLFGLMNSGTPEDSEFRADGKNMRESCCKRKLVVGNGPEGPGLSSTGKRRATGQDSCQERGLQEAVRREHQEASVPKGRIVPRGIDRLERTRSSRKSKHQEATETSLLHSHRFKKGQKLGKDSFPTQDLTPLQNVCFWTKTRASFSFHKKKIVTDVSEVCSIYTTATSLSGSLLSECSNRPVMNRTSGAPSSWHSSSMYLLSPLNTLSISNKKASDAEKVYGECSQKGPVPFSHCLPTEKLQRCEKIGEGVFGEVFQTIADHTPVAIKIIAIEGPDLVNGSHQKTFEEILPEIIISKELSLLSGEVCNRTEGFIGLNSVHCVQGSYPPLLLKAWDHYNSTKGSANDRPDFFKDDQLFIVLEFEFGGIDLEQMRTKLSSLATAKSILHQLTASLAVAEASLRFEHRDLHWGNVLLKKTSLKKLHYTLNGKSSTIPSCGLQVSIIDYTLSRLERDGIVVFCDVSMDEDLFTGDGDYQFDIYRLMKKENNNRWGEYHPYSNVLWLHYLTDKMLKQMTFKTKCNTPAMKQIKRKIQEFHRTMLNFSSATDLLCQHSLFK

O=C1/C(=C(\O)C2CCCCC2)C(=O)[C@@]2(C(=O)OCc3ccc(Br)cc3)CS[C@H](c3ccccc3)N12  MIC (Streptomyces; bacterial growth, broth dilution; Mueller-Hinton broth; 24 h, 35 °C): 0.49 µg/mL
COc1cccc(OC)c1C(=O)N[C@@H]1C(=O)N2[C@@H]1SC(C)(C)[C@@H]2C(=O)O  MIC (Gram-positive bacteria; seven strains): 16 µM
CC/C(O)=C1/C(=O)N2[C@@H](c3ccccc3)SC[C@]2(C(=O)OC2CCCCC2)C1=O  MIC (Streptomyces; bacterial growth, broth dilution; Mueller-Hinton broth; 24 h, 35 °C): 31.3 µg/mL
COC1CN([C@H]2CC[C@H]([C@@]3(C)Oc4c(Cl)cc(C(=O)NCc5c(SC)cc(C)[nH]c5=O)c(C)c4O3)CC2)C1  log2 fold change (RNA-seq, item: CKB mouse homolog; mouse, HT-1376 xenograft, whole blood; dose not given; relative to: vehicle): 0.0761
Cc1ncsc1-c1ccc(C(C)NC(=O)C2CC(O)CN2C(=O)C(NC(=O)CCCCCCCCCCN2CCCC(Nc3ncc(Cl)c(Nc4ccccc4S(=O)(=O)C(C)C)n3)C2)C(C)(C)C)cc1 (stereo not drawn)  log2 fold change (22Rv1; RNA-seq, item: ZNF362 mRNA; concentration not given; relative to: DMSO): -1.42
C=CCOC(=O)C12CSC(c3ccccc3)N1C(=O)C(=C(O)NC13CC4CC(CC(C4)C1)C3)C2=O (stereo not drawn)  MIC (Streptomyces; bacterial growth, broth dilution; Mueller-Hinton broth; 24 h, 35 °C): 15.6 µg/mL
CC1(C)[C@H](NC(=O)/C(=N\OCCN)c2nsc(N)n2)C(=O)N1OS(=O)(=O)O  MIC (Citrobacter freundii; agar dilution; ATCC 43864, susceptible): 8 µg/mL
N=C(N)NCCC[C@@H]1NC(=O)[C@H](CCCNC(=N)N)NC(=O)[C@@H](CCCNC(=N)N)NC(=O)[C@@H](CCCNC(=N)N)NC(=O)[C@@H](C(c2ccccc2)c2ccccc2)NC(=O)[C@@H](Cc2c[nH]c3ccccc23)NC(=O)[C@@H](C(c2ccccc2)c2ccccc2)NC1=O  MIC (Candida albicans; SC5314): 32 µg/mL
COc1c(NC(=O)c2ccc(NC(=O)c3ccc(NC(=O)[C@H](Cc4c[nH]nn4)NC(=O)c4ccc(NC(=O)/C(C)=C/c5ccc(O)cc5)cc4)cc3)cc2O)ccc(C(=O)O)c1O  MIC (Mycolicibacterium phlei; DSM 750): 2 µg/mL
CC1(C)[C@H](NC(=O)/C(=N\OC2(C(=O)O)CC2)c2nsc(N)n2)C(=O)N1OS(=O)(=O)O  MIC (Providencia rettgeri; agar dilution; ATCC 31052, susceptible): ≤ 0.03 µg/mL
O=C1C(=C(O)NC23CC4CC(CC(C4)C2)C3)C(=O)C2(C(=O)OC3CCCCC3)CSC(c3ccccc3)N12 (stereo not drawn)  MIC (Streptomyces; bacterial growth, broth dilution; Mueller-Hinton broth; 24 h, 35 °C): 15.6 µg/mL
CNS(=O)(=O)Nc1nccc(Cc2c(C)c3ccc(Oc4ncccc4F)cc3oc2=O)c1F  IC50 (RBE; cell viability; 7 days): 25 nM
C=CC(=O)Nc1cccc(Cn2ncc3cnc(Nc4cnn(CCOC)c4)nc32)c1  percent of control (PIP5K1A human; binding, KINOMEscan; 100 nM; lower = stronger binding): 3.3%
CCN(CC)CC(=O)Nc1cccc(-n2cc(-c3ccc4ccc(-c5cn(-c6cccc(NC(=O)CN(CC)CC)c6)nn5)cc4c3)nn2)c1  fold regulation (RCC4; PCR array, item: VEGFC; 5 x IC50, 6 h, normoxia; relative to: untreated): -1.61 fold
CN(Cc1ccc(C2(C(F)(F)F)CCC2)cc1)Cc1cccc2ccccc12  MIC (Trichophyton mentagrophytes; microbial growth, broth dilution; ATCC18748; 72 h): 4000 µg/mL
CC1(C)C(NC(=O)C(=NOCC(=O)N2CC3CCCC3C2C(=O)O)c2csc(N)n2)C(=O)N1OS(=O)(=O)O (stereo not drawn)  MIC (Citrobacter freundii; agar dilution; ATCC 43864, susceptible): 1 µg/mL
N=C(N)NCCC[C@@H]1NC(=O)[C@@H](CCCNC(=N)N)NC(=O)[C@H](CCCNC(=N)N)NC(=O)[C@@H](C(c2ccccc2)c2ccccc2)NC(=O)[C@@H](C(c2ccccc2)c2ccccc2)NC(=O)[C@@H](C(c2ccccc2)c2ccccc2)NC(=O)[C@@H](CCCNC(=N)N)NC1=O  MIC (Candida albicans; SC5314): 32 µg/mL
COc1c(NC(=O)c2ccc(NC(=O)c3ccc(NC(=O)[C@H](CC#N)NC(=O)c4ccc(NC(=O)/C(C)=C/c5ccc(O)cc5)cc4)cc3)c(OC)c2O)ccc(C(=O)O)c1O  MIC (Mycolicibacterium phlei; microbial growth, broth dilution; DSM750): 2 µg/mL
Nc1ncc(-c2cc(-c3cnn(CC(F)(F)F)c3)ncc2F)nc1C(=O)NC1CNCC(F)C1 (stereo not drawn)  remaining binding (RIPK2; KINOMEscan; 1 µM; relative to: DMSO control): 86%
Cc1nn(-c2cccc(N)c2)c(=O)c2cnc(Nc3ccc(N4CCNCC4)cc3)nc12  IC50 (HASPIN (Homo sapiens, UniProt Q8TF76); enzyme activity, inhibitor): > 10000 nM
CC1(C)[C@H](NC(=O)/C(=N\OC2(C(=O)O)CCCC2)c2csc(N)n2)C(=O)N1OS(=O)(=O)O  MIC (Citrobacter freundii; agar dilution; ATCC 43864, susceptible): 0.25 µg/mL
CN1CCCNC(=O)c2cccc(c2)C(=O)NCCCN(C)CCCNc2cccc3c2C(=O)c2cccc(c2C3=O)NCCC1  log2 fold change (SAS; RNA-Seq, item: GTF2E2 mRNA; 1 µM, 6 h; relative to: untreated cells): -1.39
CC1(C)[C@H](NC(=O)/C(=N\OCC(=O)N2CCC(C(=O)O)CC2)c2csc(N)n2)C(=O)N1OS(=O)(=O)O  MIC (Citrobacter freundii; agar dilution; ATCC 43864, susceptible): 2 µg/mL
O=C1C(=C(O)NC2CCCCC2)C(=O)C2(C(=O)OC3CCCCC3)CSC(c3ccccc3)N12 (stereo not drawn)  MIC (Streptomyces; bacterial growth, broth dilution; Mueller-Hinton broth; 24 h, 35 °C): 1.95 µg/mL

Some of these lines once more:
COc1c(NC(=O)c2ccc(NC(=O)c3ccc(NC(=O)[C@H](Cc4c[nH]nn4)NC(=O)c4ccc(NC(=O)/C(C)=C/c5ccc(O)cc5)cc4)cc3)cc2O)ccc(C(=O)O)c1O  MIC (Mycolicibacterium phlei; DSM 750): 2 µg/mL
Cc1ncsc1-c1ccc(C(C)NC(=O)C2CC(O)CN2C(=O)C(NC(=O)CCCCCCCCCCN2CCCC(Nc3ncc(Cl)c(Nc4ccccc4S(=O)(=O)C(C)C)n3)C2)C(C)(C)C)cc1 (stereo not drawn)  log2 fold change (22Rv1; RNA-seq, item: ZNF362 mRNA; concentration not given; relative to: DMSO): -1.42
